Results from different studies.
Parts stem from different laboratories: compare values within a part only.
Chain of UniProt O96013 (whole entry, looked up): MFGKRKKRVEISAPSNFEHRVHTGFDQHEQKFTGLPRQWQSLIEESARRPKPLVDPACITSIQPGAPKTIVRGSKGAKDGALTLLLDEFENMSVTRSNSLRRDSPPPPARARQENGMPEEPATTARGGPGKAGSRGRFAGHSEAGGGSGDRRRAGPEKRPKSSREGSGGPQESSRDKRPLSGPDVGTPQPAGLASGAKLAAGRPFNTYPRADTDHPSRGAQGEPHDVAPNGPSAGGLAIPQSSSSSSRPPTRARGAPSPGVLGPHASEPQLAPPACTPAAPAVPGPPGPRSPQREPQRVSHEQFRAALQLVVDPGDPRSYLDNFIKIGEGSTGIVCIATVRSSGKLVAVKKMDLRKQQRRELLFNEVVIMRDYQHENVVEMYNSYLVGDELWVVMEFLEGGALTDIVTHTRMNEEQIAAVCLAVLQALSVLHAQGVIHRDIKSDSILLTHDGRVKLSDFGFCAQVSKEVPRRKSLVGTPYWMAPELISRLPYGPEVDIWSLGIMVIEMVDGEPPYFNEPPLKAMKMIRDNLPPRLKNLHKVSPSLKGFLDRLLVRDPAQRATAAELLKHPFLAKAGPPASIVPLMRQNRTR
Chain of UniProt O14733 (whole entry, looked up): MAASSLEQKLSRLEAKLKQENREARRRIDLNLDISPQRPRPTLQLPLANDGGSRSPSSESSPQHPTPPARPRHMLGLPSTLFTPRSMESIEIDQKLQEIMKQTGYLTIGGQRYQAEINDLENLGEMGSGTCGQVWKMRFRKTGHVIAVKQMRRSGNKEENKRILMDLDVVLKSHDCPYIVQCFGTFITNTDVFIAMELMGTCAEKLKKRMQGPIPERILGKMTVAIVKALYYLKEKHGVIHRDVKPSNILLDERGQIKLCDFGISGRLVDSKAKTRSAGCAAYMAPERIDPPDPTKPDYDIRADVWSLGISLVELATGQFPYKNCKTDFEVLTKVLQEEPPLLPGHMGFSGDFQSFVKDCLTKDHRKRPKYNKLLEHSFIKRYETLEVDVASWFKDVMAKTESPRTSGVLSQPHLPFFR
Chain of UniProt P41143 (whole entry, looked up): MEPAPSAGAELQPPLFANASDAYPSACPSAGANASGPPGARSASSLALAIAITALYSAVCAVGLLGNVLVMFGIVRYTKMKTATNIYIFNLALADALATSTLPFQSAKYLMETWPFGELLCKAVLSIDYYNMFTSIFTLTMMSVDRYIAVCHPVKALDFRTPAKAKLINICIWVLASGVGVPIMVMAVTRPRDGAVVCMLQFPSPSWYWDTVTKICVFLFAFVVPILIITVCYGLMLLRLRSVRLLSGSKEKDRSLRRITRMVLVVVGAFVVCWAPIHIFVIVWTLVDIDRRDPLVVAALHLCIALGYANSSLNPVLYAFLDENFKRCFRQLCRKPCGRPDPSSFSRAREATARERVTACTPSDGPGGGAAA
Chain of UniProt P51956 (whole entry, looked up): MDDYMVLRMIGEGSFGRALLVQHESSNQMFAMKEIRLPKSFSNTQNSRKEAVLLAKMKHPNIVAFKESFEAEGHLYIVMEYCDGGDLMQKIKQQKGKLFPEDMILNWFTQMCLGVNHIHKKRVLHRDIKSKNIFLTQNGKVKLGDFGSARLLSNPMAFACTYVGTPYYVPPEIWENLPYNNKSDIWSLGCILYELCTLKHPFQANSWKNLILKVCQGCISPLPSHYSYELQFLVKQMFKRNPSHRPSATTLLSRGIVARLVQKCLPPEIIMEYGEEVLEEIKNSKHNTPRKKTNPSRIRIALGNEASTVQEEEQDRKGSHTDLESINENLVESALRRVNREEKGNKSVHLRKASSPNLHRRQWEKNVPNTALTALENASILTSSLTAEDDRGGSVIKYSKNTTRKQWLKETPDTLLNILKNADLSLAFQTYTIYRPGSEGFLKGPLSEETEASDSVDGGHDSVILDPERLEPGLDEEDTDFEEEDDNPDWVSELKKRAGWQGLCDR
Chain of UniProt Q8IWQ3 (whole entry, looked up): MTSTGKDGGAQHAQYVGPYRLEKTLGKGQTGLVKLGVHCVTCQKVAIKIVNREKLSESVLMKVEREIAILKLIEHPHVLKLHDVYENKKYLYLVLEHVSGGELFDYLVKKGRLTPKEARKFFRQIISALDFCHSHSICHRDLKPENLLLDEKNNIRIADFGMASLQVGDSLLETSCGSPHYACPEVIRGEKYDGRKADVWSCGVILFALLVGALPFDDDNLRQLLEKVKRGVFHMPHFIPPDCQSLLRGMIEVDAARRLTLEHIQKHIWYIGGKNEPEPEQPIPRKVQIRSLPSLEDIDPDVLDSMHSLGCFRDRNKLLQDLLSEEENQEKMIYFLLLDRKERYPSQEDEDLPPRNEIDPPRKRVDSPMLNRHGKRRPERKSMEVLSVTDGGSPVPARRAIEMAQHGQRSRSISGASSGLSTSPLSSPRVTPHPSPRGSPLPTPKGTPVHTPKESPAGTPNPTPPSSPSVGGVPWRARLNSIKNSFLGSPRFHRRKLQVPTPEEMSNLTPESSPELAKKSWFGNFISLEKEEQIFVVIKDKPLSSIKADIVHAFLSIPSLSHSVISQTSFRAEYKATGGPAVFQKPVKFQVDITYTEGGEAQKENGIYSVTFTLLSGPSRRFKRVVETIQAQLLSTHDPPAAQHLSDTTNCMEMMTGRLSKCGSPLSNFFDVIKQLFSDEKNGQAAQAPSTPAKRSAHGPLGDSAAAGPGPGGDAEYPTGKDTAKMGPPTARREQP
Chain of UniProt Q9H2K8 (whole entry, looked up): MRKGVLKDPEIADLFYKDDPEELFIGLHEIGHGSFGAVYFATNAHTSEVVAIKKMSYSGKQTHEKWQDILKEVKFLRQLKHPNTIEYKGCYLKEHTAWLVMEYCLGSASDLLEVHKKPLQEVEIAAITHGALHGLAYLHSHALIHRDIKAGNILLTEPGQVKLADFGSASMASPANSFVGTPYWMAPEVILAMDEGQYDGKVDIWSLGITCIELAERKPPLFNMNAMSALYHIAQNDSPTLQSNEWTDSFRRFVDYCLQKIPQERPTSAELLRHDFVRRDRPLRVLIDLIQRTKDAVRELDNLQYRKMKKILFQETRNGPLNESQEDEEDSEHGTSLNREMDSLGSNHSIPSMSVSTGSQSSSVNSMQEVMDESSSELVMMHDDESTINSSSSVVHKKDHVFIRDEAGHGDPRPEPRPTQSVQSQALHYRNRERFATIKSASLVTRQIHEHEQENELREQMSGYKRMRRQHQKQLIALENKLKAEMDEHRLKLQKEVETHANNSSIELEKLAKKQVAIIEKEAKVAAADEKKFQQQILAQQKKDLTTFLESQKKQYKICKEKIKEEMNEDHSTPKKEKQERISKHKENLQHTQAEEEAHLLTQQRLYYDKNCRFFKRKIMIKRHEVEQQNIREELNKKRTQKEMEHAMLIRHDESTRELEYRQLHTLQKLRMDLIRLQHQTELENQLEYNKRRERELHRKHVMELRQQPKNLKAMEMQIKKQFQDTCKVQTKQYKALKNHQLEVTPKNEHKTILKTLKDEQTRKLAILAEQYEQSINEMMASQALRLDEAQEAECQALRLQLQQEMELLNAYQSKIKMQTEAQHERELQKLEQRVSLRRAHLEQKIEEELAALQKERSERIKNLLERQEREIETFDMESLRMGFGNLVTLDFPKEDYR
Chain of UniProt P07948 (whole entry, looked up): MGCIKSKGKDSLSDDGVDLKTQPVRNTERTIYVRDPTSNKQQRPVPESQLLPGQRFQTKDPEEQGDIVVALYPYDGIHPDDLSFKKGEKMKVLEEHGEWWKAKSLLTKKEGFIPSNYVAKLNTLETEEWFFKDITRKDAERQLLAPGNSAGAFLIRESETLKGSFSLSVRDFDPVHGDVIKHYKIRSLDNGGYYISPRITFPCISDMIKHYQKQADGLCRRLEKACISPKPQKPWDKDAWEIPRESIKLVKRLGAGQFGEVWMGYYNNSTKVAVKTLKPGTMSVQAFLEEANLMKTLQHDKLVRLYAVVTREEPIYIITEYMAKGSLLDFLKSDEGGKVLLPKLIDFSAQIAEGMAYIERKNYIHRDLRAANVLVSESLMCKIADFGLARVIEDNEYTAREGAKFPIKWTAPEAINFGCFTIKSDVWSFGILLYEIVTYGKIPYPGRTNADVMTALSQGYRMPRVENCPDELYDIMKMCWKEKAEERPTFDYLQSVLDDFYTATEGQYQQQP

Sample 1
SMILES: Cc1sc(C(=O)NC2COC2)cc1-n1cc(NC(=O)Nc2c(F)cccc2Cl)cn1
Observed: enzyme activity
Concentration: 10 µM
Reference: untreated control
Endpoint: remaining activity
BRSK2 (Homo sapiens, UniProt Q8IWQ3): 99.8%
NEK3 (Homo sapiens, UniProt P51956): 86.5%
Tyrosine-protein kinase Lyn, isoform B (LYN, Homo sapiens, UniProt P07948): 88.8%
PAK4 (Homo sapiens, UniProt O96013): 103%
MAP2K7 (Homo sapiens, UniProt O14733): 115%
TAOK3 (Homo sapiens, UniProt Q9H2K8): 94.4%
IRAK1 (Homo sapiens, UniProt P51617): 78.5%
FES (Homo sapiens, UniProt P07332): 93.2%

Sample 2
Host: human
Medium: microsomes or S9
Concentration: 2 µM
Time: 0.5 h
Endpoint: remaining compound
Cc1cc(C)n(CCCN(C)CC2(O)CNCCOC2)n1 (stereo not shown): 50.8%
CCCNC(C)C(=O)Nc1c(C)csc1C(=O)O (stereo not shown): 83.1%
Cc1cccc(-c2c(-n3cncn3)nc3ccccc3c2O)c1: 88.3%
O=C(NC1CCCCC1)c1cnn2c(=O)cc(-c3ccc(F)cc3F)[nH]c12: 46.2%
CCOc1ccc(S(=O)(=O)/N=C2/CCCCCN2)cc1: 61.5%
CN(CCc1ccccc1)c1ncc(-c2ncc[nH]2)c(-c2ccc(F)cc2)n1: 0.104%
CCCN(CCC)S(=O)(=O)c1cc2c(cc1Cl)Oc1ccc(C)cc1NC2=O: < 1%
O=c1ccc(-c2ccc(S(=O)(=O)NCCCN3CCN(c4ccccc4)CC3)s2)n[nH]1: 45.8%

Sample 3
Target: Calcium/calmodulin-dependent protein kinase type II subunit alpha (CAMK2A, Homo sapiens, UniProt Q9UQM7)
Chain of UniProt Q9UQM7 (whole entry, looked up): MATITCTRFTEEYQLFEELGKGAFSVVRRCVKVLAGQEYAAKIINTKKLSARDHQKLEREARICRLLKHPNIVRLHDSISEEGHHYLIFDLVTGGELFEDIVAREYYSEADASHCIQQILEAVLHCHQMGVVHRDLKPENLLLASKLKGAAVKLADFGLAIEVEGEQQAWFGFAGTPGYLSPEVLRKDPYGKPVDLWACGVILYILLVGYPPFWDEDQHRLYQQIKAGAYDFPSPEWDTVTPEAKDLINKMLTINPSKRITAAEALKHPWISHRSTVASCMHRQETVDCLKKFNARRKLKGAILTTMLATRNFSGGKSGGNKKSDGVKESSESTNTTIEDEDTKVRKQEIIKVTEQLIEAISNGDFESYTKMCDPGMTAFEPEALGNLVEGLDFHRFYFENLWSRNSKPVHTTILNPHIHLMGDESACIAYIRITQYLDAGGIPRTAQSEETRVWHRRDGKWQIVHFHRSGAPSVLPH
Observed: enzyme activity
Mode: inhibitor
Concentration: 10 µM
Endpoint: inhibition
OC[C@H]1O[C@@H](Oc2ccc3c(c2)OC[C@H]2c4cc5c(cc4O[C@@H]32)OCO5)[C@H](O)[C@@H](O)[C@@H]1O: 15%
C[C@H]1[C@H](OC(=O)CCC(=O)O)O[C@@H]2O[C@@]3(C)CC[C@H]4[C@H](C)CC[C@@H]1[C@@]24OO3: 0%
COc1cc(N)c(Cl)cc1C(=O)N[C@@H]1CCN(CCCOc2ccc(F)cc2)C[C@@H]1OC (racemic): 1%
O=C(/C=C/c1ccccc1)c1ccccc1O: -5%
O=C1NCCN1CCN1CCC(c2cn(-c3ccc(F)cc3)c3ccc(Cl)cc23)CC1: -2%
C=C1C[C@@]23CC[C@H]4[C@@](C)(CCC[C@@]4(C)C(=O)O[C@@H]4O[C@H](CO)[C@@H](O)[C@H](O)[C@H]4O)[C@@H]2CC[C@]1(O[C@@H]1O[C@H](CO)[C@@H](O)[C@H](O)[C@H]1O)C3: -34%
CC(=O)c1ccc(C)cc1O: -8%
OC(CCCN1CCCCC1)(c1ccccc1)c1ccccc1: -2%

Mixed results
N#CN1CC[C@H](C(=O)Nc2nc3c(s2)CN(C(=O)CN=[N+]=[N-])CC3)C1
inhibition (Delta-type opioid receptor (OPRD1, Homo sapiens, UniProt P41143); ligand displacement; 10 µM): 8.43%
